Measurements of several laboratories.
± gives the spread as reported.
Technique: steady-state kinetics
B1: Nudt8 (Mus musculus, UniProt Q9CR24); chain MLPDGLSAEDEQRCRQLLARTTARLRSRPAAAAVLVPLCLVRGVPALLYTLRSSRLVGRHKGEVSFPGGKCDPDDQDVIHTALRETQEELGLEVPKEHVWGVLQPVYDREKATIVPVLANVGPLDLQSLRPNLEEVDEVFEMSLAHLLQTQNQGYTHFCQGGHFSYTLPVFLHGPHRVWGLTAVITELTLKLLAPGFYQPSLAVPELPRG
B2: enzyme (Clostridium autoethanogenum, UniProt A0ABM5NRF0); chain KGFAMLGINKLGWIEKKNPVPGPYDAIVHPLAVSPCTSDIHTVFEGALGNRENMILGHEAVGEIAEVGSEVKDFKVGDRVIVPCTTPDWRSLEVQAGFQQHSNGMLAGWKFSNFKDGVFADYFHVNDADMNLAILPDEIPLESAVMMTDMMTTGFHGAELADIKMGSSVVVIGIGAVGLMGIAGSKLRGAGRIIGVGSRPVCVETAKFYGATDIVNYKNGDIVEQIMDLTHGKGVDRVIMAGGGAETLAQAVTMVKPGGVISNINYHGSGDTLPIPRVQWGCGMAHKTIRGGLCPGGRLRMEMLRDLVLYKRVDLSKLVTHVFDGAENIEKALLLMKNKPKDLIKSVVTF
B3: YdjH (Escherichia coli, UniProt P77493); chain MDNLDVICIGAAIVDIPLQPVSKNIFDVDSYPLERIAMTTGGDAINEATIISRLGHRTALMSRIGKDAAGQFILDHCRKENIDIQSLKQDVSIDTSINVGLVTEDGERTFVTNRNGSLWKLNIDDVDFARFSQAKLLSLASIFNSPLLDGKALTEIFTQAKARQMIICADMIKPRLNETLDDICEALSYVDYLFPNFAEAKLLTGKETLDEIADCFLACGVKTVVIKTGKDGCFIKRGDMTMKVPAVAGITAIDTIGAGDNFASGFIAALLEGKNLRECARFANATAAISVLSVGATTGVKNRKLVEQLLEEYEG
B4: LYS1 C205S/K99M (Saccharomyces cerevisiae, UniProt P38998); chain MAAVTLHLRAETKPLEARAALTPTTVKKLIAKGFKIYVEDSPQSTFNINEYRQAGAIIVPAGSWKTAPRDRIIIGLKEMPETDTFPLVHEHIQFAHCYMDQAGWQNVLMRFIKGHGTLYDLEFLENDQGRRVAAFGFYAGFAGAALGVRDWAFKQTHSDDEDLPAVSPYPNEKALVKDVTKDYKEALATGARKPTVLIIGALGRSGSGAIDLLHKVGIPDANILKWDIKETSRGGPFDEIPQADIFINCIYLSKPIAPFTNMEKLNNPNRRLRTVVDVSADTTNPHNPIPIYTVATVFNKPTVLVPTTAGPKLSVISIDHLPSLLPREASEFFSHDLLPSLELLPQRKTAPVWVRAKKLFDRHCARVKRSSRL
B5: Ma-WS/DGAT (Marinobacter nauticus); chain MTPLNPTDQLFLWLEKRQQPMHVGGLQLFSFPEGAPDDYVAQLADQLRQKTEVTAPFNQRLSYRLGQPVWVEDEHLDLEHHFRFEALPTPGRIRELLSFVSAEHSHLMDRERPMWEVHLIEGLKDRQFALYTKVHHSLVDGVSAMRMATRMLSENPDEHGMPPIWDLPCLSRDRGESDGHSLWRSVTHLLGLSGRQLGTIPTVAKELLKTINQARKDPAYDSIFHAPRCMLNQKITGSRRFAAQSWCLKRIRAVCEAYGTTVNDVVTAMCAAALRTYLMNQDALPEKPLVAFVPVSLRRDDSSGGNQVGVILASLHTDVQEAGERLLKIHHGMEEAKQRYRHMSPEEIVNYTALTLAPAAFHLLTGLAPKWQTFNVVISNVPGPSRPLYWNGAKLEGMYPVSIDMDRLALNMTLTSYNDQVEFGLIGCRRTLPSLQRMLDYLEQGLAELELNAGL
B6: enzyme (Thermus thermophilus, UniProt Q72J81); chain MEVKRIGVVGAGQMGSGIAQVAASAGYEVVLVDVAESFLERGLAAIRRSLGKFLEKGKITQEAHDEALGRIRTSLSLEDLKDADLIVEAIVEDEGEKRRLFERLGALAKPEAILASNTSSIPITALARYSGRPERFIGMHFFNPVPLMQLVEVIRGELTSEATRDVVVEVARRMGKTPLEVQDYPGFISNRLLMPMINEAIEALREGVATKEAIDGIMRLGMNHPMGPLELADFIGLDTCLAIMEVLHRGFGDDKYRPSPLLRRMVQAGLLGRKAGRGFYTYDEKGNKVG
B7: carbamoyl phosphate synthetase large subunit G575K (Escherichia coli, UniProt P00968); chain PKRTDIKSILILGAGPIVIGQACEFDYSGAQACKALREEGYRVILVNSNPATIMTDPEMADATYIEPIHWEVVRKIIEKERPDAVLPTMGGQTALNCALELERQGVLEEFGVTMIGATADAIDKAEDRRRFDVAMKKIGLETARSGIAHTMEEALAVAADVGFPCIIRPSFTMGGSGGGIAYNREEFEEICARGLDLSPTKELLIDESLIGWKEYEMEVVRDKNDNCIIVCSIENFDAMGIHTGDSITVAPAQTLTDKEYQIMRNASMAVLREIGVETGGSNVQFAVNPKNGRLIVIEMNPRVSRSSALASKATGFPIAKVAAKLAVGYTLDELMNDITGGRTPASFEPSIDYVVTKIPRFNFEKFAGANDRLTTQMKSVGEVMAIGRTQQESLQKALRGLEVGATGFDPKVSLDDPEALTKIRRELKDAGADRIWYIADAFRAGLSVDGVFNLTNIDRWFLVQIEELVRLEEKVAEVGITGLNADFLRQLKRKGFADARLAKLAGVREAEIRKLRDQYDLHPVYKRVDTCAAEFATDTAYMYSTYEEECEANPSTDREKIMVLGGGPNRIGQKIEFDYCCVHASLALREDGYETIMVNCNPETVSTDYDTSDRLYFEPVTLEDVLEIVRIEKPKGVIVQYGGQTPLKLARALEAAGVPVIGTSPDAIDRAEDRERFQHAVERLKLKQPANATVTAIEMAVEKAKEIGYPLVVRPSYVLGGRAMEIVYDEADLRRYFQTAVSVSNDAPVLLDHFLDDAVEVDVDAICDGEMVLIGGIMEHIEQAGVHSGDSACSLPAYTLSQEIQDVMRQQVQKLAFELQVRGLMNVQFAVKNNEVYLIEVNPRAARTVPFVSKATGVPLAKVAARVMAGKSLAEQGVTKEVIPPYYSVKEVVLPFNKFPGVDPLLGPEMRSTGEVMGVGRTFAEAFAKAQLGSNSTMKKHGRALLSVREGDKERVVDLAAKLLKQGFELDATHGTAIVLGEAGINPRLVNKVHEGRPHIQDRIKNGEYTYIINTTSGRRAIEDSRVIRRSALQYKVHYDTTLNGGFATAMALNADATEKVISVQEMHAQIK
B8: pylS (Methanosarcina mazei, UniProt Q8PWY1); chain MDKKPLNTLISATGLWMSRTGTIHKIKHHEVSRSKIYIEMACGDHLVVNNSRSSRTARALRHHKYRKTCKRCRVSDEDLNKFLTKANEDQTSVKVKVVSAPTRTKKAMPKSVARAPKPLENTEAAQAQPSGSKFSPAIPVSTQESVSVPASVSTSISSISTGATASALVKGNTNPITSMSAPVQASAPALTKSQTDRLEVLLNPKDEISLNSGKPFRELESELLSRRKKDLQQIYAEERENYLGKLEREITRFFVDRGFLEIKSPILIPLEYIERMGIDNDTELSKQIFRVDKNFCLRPMLAPNLYNYLRKLDRALPDPIKIFEIGPCYRKESDGKEHLEEFTMLNFCQMGSGCTRENLESIITDFLNHLGIDFKIVGDSCMVYGDTLDVMHGDLELSSAVVGPIPLDREWGIDKPWIGAGFGLERLLKVKHDFKNIKRAARSESYYNGISTNL
B9: DdmC (Stenotrophomonas maltophilia, UniProt Q5S3I3); chain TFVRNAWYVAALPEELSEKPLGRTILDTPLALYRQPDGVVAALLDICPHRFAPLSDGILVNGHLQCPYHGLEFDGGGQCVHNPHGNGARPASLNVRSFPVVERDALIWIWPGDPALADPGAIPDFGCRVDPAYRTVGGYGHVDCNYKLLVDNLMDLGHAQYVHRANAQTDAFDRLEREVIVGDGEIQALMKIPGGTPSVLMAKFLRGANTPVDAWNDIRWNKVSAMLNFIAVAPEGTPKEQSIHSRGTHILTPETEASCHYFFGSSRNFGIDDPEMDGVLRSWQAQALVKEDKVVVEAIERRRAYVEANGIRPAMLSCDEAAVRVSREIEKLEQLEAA
UniProt O81030, sequence (whole entry, looked up): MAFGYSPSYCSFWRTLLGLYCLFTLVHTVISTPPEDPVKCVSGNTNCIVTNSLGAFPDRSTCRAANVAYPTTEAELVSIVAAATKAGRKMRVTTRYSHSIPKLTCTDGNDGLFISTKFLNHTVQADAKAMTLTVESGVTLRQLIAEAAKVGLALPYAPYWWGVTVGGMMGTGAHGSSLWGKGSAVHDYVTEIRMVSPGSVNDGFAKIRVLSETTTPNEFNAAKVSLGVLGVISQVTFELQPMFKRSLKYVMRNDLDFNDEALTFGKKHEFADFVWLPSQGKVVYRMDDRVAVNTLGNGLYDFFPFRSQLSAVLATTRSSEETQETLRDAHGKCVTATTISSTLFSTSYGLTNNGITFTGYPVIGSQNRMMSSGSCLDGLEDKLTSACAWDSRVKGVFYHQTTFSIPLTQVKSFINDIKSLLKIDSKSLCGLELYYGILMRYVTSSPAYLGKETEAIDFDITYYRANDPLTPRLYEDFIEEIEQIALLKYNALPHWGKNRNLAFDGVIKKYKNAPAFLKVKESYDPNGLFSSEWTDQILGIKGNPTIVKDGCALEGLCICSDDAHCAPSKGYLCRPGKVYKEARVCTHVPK
UniProt P19337, sequence (whole entry, looked up): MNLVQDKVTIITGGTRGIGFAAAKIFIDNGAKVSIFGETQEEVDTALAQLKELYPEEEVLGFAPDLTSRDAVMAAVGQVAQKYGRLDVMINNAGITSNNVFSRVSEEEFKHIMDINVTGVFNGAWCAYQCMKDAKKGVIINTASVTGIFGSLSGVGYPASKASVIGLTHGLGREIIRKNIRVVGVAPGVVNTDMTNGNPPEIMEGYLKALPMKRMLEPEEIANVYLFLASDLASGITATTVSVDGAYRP
UniProt Q48662, sequence (whole entry, looked up): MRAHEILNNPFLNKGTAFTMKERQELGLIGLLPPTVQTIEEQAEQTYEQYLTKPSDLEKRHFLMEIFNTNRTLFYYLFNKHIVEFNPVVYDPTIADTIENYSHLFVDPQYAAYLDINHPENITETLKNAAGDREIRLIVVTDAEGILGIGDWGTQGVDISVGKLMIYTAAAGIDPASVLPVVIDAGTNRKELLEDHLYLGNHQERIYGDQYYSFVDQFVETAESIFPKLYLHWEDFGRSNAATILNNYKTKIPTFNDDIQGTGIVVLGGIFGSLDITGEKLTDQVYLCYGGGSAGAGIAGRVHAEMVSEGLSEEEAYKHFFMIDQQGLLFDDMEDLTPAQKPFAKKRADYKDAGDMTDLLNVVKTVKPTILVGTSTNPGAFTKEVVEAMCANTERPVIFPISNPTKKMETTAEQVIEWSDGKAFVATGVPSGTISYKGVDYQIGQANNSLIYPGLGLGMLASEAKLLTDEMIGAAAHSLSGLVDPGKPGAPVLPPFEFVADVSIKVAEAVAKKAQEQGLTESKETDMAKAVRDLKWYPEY
UniProt P22106, sequence (whole entry, looked up): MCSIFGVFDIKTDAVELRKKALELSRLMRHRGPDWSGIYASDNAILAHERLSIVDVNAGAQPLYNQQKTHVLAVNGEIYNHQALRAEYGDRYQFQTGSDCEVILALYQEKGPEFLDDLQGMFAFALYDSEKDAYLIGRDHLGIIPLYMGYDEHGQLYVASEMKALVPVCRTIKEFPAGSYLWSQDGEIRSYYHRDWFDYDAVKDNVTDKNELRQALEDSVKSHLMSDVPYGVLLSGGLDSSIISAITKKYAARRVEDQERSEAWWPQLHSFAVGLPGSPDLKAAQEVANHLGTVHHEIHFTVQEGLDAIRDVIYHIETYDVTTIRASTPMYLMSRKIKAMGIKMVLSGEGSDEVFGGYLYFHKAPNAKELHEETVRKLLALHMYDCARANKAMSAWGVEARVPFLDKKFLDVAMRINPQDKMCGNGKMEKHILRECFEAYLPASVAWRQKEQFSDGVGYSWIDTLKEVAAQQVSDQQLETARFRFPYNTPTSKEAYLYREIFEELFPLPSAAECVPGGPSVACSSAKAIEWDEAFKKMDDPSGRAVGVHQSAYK
UniProt P12081, sequence (whole entry, looked up): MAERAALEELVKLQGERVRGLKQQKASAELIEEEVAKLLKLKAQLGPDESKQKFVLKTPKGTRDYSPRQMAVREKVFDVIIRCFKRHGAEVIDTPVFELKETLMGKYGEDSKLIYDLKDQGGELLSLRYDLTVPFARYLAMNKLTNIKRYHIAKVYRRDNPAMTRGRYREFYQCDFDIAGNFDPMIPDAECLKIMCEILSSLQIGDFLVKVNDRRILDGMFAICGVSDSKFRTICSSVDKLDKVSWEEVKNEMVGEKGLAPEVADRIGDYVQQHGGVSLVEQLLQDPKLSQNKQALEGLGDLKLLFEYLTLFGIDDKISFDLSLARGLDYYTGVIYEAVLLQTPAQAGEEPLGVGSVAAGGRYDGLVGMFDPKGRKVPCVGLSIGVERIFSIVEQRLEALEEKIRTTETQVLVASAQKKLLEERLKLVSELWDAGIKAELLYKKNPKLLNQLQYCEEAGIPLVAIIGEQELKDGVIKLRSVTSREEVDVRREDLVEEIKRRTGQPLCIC

Substance	substrate	pH	temperature	setting	together with	kcat
B1 (Nudt8)	CC(C)(COP(=O)(O)OP(=O)(O)OC[C@H]1O[C@@H](n2cnc3c(N)ncnc32)[C@H](O)[C@@H]1OP(=O)(O)O)[C@@H](O)C(=O)NCCC(=O)NCCSC(=O)CCC(=O)O	pH 8.5	–	–	2 mM Mn2+	3.12 ± 0.233 s⁻¹
enzyme (Lactococcus lactis, UniProt Q48662)	O=C(O)C[C@H](O)C(=O)O	pH 7	30 °C	apparent	–	266 ± 14 s⁻¹
asnB (Escherichia coli, UniProt P22106)	NC(=O)CC[C@H](N)C(=O)O	pH 8	37 °C	100 mM NaCl, glutaminase site	MgCl2; no ATP	6.2 ± 0.2 s⁻¹
B2 (enzyme)	NC(=O)C1=CN([C@@H]2O[C@H](COP(=O)(O)OP(=O)(O)OC[C@H]3O[C@@H](n4cnc5c(N)ncnc54)[C@H](OP(=O)(O)O)[C@@H]3O)[C@@H](O)[C@H]2O)C=CC1	pH 7.5	25 °C	cofactor varied	–	68 ± 3 s⁻¹
B3 (YdjH)	O=C(CO)[C@@H](O)[C@H](O)[C@H](O)[C@@H](O)CO	pH 7.4	30 °C	KCl 100 mM	ATP 2.0 mM, MgCl2 5.0 mM	0.35 ± 0.01 s⁻¹
protein (Trypanosoma brucei, UniProt Q382C3)	Nc1ccn([C@@H]2O[C@H](COP(=O)(O)OP(=O)(O)OP(=O)(O)O)[C@@H](O)[C@H]2O)c(=O)n1	pH 7.5	–	–	ethanolamine-phosphate 0.1 mM	1.15 s⁻¹
B4 (LYS1 C205S/K99M)	NCCCC[C@H](N)C(=O)O	pH 7.2	25 °C	–	NADH and α-Kg	68 ± 4 s⁻¹
BaiA2 (Clostridium scindens, UniProt P19337)	NC(=O)c1ccc[n+]([C@@H]2O[C@H](COP(=O)(O)OP(=O)(O)OC[C@H]3O[C@@H](n4cnc5c(N)ncnc54)[C@H](OP(=O)(O)O)[C@@H]3O)[C@@H](O)[C@H]2O)c1	pH 8.7	37 °C	cofactor varied	glycocholic acid 1.4 mM	0.025 s⁻¹
B5 (Ma-WS/DGAT)	CCCCCC(=O)SCCNC(=O)CCNC(=O)[C@H](O)C(C)(C)COP(=O)(O)OP(=O)(O)OC[C@H]1O[C@@H](n2cnc3c(N)ncnc32)[C@H](O)[C@@H]1OP(=O)(O)O	pH 7.5	25 °C	NaCl 300 mM, lower limit, not saturable, apparent	1-hexanol 4 mM	> 3 s⁻¹
B6 (enzyme)	NC(=O)c1ccc[n+]([C@@H]2O[C@H](COP(=O)(O)OP(=O)(O)OC[C@H]3O[C@@H](n4cnc5c(N)ncnc54)[C@H](O)[C@@H]3O)[C@@H](O)[C@H]2O)c1	pH 7	65 °C	cofactor varied	–	12.9 s⁻¹
B7	Nc1ncnc2c1ncn2[C@@H]1O[C@H](COP(=O)(O)OP(=O)(O)OP(=O)(O)O)[C@@H](O)[C@H]1O	pH 7.6	–	KCl 100 mM	glutamine 10 mM, ornithine 10 mM	3.3 ± 0.18 s⁻¹
HARS1 (Homo sapiens, UniProt P12081)	Nc1ncnc2c1ncn2[C@@H]1O[C@H](COP(=O)(O)OP(=O)(O)OP(=O)(O)O)[C@@H](O)[C@H]1O	pH 7.5	–	–	histidine, tRNAHis 5 µM, MgCl2 10 mM, KCl 150 mM	5.8 ± 0.2 s⁻¹
enzyme (Bifidobacterium adolescentis, UniProt A1A3M6)	O=[N+]([O-])c1ccc(O[C@H]2O[C@H](CO)[C@H](O)[C@H](O)[C@H]2O)cc1	pH 5	40 °C	–	–	2.43 ± 0.01 s⁻¹
B8 (pylS)	C[C@@H]1CC=N[C@H]1C(=O)NCCCC[C@H](N)C(=O)O	pH 7.2	37 °C	apparent	–	0.0012 ± 0.0001 s⁻¹
GulLO5 (Arabidopsis thaliana, UniProt O81030)	O=C1O[C@H]([C@@H](O)CO)[C@H](O)[C@@H]1O	pH 8	25 °C	apparent	cytochrome c 121 µM, FAD 100 µM	0.005 s⁻¹
Ptb (Listeria monocytogenes, UniProt Q8Y7B7)	CC(C)C(=O)SCCNC(=O)CCNC(=O)[C@H](O)C(C)(C)COP(=O)(O)OP(=O)(O)OC[C@H]1O[C@@H](n2cnc3c(N)ncnc32)[C@H](O)[C@@H]1OP(=O)(O)O	pH 7.5	25 °C	apparent	–	1260 ± 31.7 s⁻¹
B9 (DdmC)	COc1c(Cl)ccc(Cl)c1C(=O)O	–	–	apparent	NADH 1 mM	0.0467 ± 0.005 s⁻¹

Repeated from above:
Substance	substrate	pH	temperature	setting	together with	kcat
protein (Trypanosoma brucei, UniProt Q382C3)	Nc1ccn([C@@H]2O[C@H](COP(=O)(O)OP(=O)(O)OP(=O)(O)O)[C@@H](O)[C@H]2O)c(=O)n1	pH 7.5	–	–	ethanolamine-phosphate 0.1 mM	1.15 s⁻¹
B4 (LYS1 C205S/K99M)	NCCCC[C@H](N)C(=O)O	pH 7.2	25 °C	–	NADH and α-Kg	68 ± 4 s⁻¹
